Results of several laboratories.
A part holds a random share of what one study measured. Changes are numbered by the printed parent chain.

Block 1 — technique: RNA Bind-n-Seq; form: RNA; matrix: in vitro; tested at: 200 nM; setting: whole 134-nt RNA, ends assumed; together with: 150 mM LiCl; relative to: input library; direction: higher = stronger binding; quantity: log2 enrichment; each molecule: 7-deaza-guanosine replaces G
Target: Fragile X messenger ribonucleoprotein 1, C-terminal low-complexity region (Fmr1, Mus musculus, UniProt P35922)
All sequences stand within: GGGAGUUCUACAGUCCGACGAUC … UGGAAUUCUCGGGUGUCAAGG
UGGGCAUUUUGGUGGAGACGAUGAGCACCAACGACACGAUCGUCAGUGGCACGCUGCCCCAGCGCAUGGCGUCCUGCCUGGAGGUGCUGG: -2.3
CUCAAGUCCUGUGCUACACAUCGUAUGUACCGAAUCGGAGGGGAGGGGAGGGGAAAGUAUUAUGUUACGCCGUUCGGAUCUGCACUUCCA: 0.148
UGGCCCUGGUGGCAUGCGGGGAGGAAGAGGUGGCCUCAUGGAUCGUGGUGGUCCCGGUGGAAUGUUCAGAGGAGGCCGUGGUGGAGACAG: -0.462
GUCCUGUGCUACACAUCGUAUGUACCGAAUCGGGGAAAAAGGGGAAAGGGGUUUGGGGAAAGUAUUAUGUUACGCCGUUCGGAUCUGCAC: -0.726
AGUCCUGUGCUACACAUCGUAUGUACCGAAUCAAACCCCCAAACCCAAACCCCCAAAAAAGUAUUAUGUUACGCCGUUCGGAUCUGCACU: -0.298
UAACUUUAGAGGAGGAACUGAUGGAUAUGGCAGUGGACGUGGAUUUGGGGAUGGCUAUAAUGGGUAUGGAGGAGGACCUGGAGGUGGCAA: 0.213
UUUUUUGUAGUAGGGAGAUCCUUGAUCAUCAGGAUGGUAAUGUAGAAGAUGAUGGGCUUACAGGACUCCUAAGGCUUGCAACAAGUGUUG: -0.385
AAGUCCUGUGCUACACAUCGUAUGUACCGAAUCGGAAAGGUUUUUUUGGAAAAAGGAAAGUAUUAUGUUACGCCGUUCGGAUCUGCACUU: -2.43
CACAGACAACACGCACCCACACAGACACAGAGGGAAGGGGUUGGGAUGGGGACAGGGUGCACAGCAGGGCGGGGUAAAACCCCAGCCCCU: 1.79
CUGUGCUACACAUCGUAUGUACCGAAUCGGGCCCCCCCGGGGCCCCCCCGGGCCCCCCCGGGAAAGUAUUAUGUUACGCCGUUCGGAUCU: -1.51

Block 2 — technique: protein-binding microarray; form: double-stranded DNA, one strand shown; matrix: in vitro; tested at: 2200 nM top; setting: 60-bp whole probe; together with: salmon DNA 0.4 mg/ml; relative to: random background probes; direction: higher = stronger binding; quantity: fitted relative affinity; all sequences stand within: GCCTAGCAC … GTCTTGATTCGCTTGACGCTGCTG
Target: Interferon regulatory factor 7, full length, phosphomimetic (IRF7, Homo sapiens, UniProt Q92985, residues 1-503, S471D/S472D/S475D/S476D/S477D/S483D/S484D/S487D)
Residues (chain): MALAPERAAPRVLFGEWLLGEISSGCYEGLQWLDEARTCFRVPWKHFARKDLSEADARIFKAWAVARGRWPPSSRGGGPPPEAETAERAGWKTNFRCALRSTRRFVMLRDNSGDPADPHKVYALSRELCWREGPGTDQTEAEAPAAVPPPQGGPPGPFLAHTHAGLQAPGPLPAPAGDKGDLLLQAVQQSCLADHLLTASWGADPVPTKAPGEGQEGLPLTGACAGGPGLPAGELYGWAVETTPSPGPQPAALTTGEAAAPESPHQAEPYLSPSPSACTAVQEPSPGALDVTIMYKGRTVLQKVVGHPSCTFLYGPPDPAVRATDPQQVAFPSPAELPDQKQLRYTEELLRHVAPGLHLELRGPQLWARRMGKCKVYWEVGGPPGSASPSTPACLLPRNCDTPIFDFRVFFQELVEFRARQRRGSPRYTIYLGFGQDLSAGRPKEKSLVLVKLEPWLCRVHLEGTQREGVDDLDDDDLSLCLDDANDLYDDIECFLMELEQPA
GACGGACTGTTTTTCCTGACGTGCTAG: 0.777 z-score
CTAGTTAAGGTACACCAGCAGTGCTAG: -0.0639 z-score
GACGATTCCAGTATCGAGACGTGCTAG: 0.739 z-score
TTAGATATCAGTAGCGATTAGTGCTAG: -0.44 z-score
GACGAACGGAGTATCGAGACGTGCTAG: -0.488 z-score
TTAGTTATCGGGACTGGATTAGTGCTA: 0.158 z-score
TTATATATCGGGTTTCGATTAGTGCTA: 3.13 z-score
GACGGTATCGACTTTCGGGCCGTGCTA: 2.04 z-score
TCATGTTTTTCATTATTACTGTGCTAG: 2.07 z-score
GACGGACTGGGGTTTTGGGACGTGCTA: -0.612 z-score
GGCAGCCTCTGCATTCCCTCAGTGCTA: -0.38 z-score
GGCGGTATCGACTATCGGGACGTGCTA: -0.586 z-score
GACGAATTCAGACTGGAGACGTGCTAG: -0.208 z-score

Block 3 — target: CCNA1, cyclin fold, Cln2 fusion (human); technique: yeast growth competition, sequencing; matrix: yeast; setting: weak parent motif; relative to: not given; direction: higher = stronger binding; quantity: normalised enrichment score
Starting sequence: MASTL docking peptide (human); PMIAKNLMCELDE; partner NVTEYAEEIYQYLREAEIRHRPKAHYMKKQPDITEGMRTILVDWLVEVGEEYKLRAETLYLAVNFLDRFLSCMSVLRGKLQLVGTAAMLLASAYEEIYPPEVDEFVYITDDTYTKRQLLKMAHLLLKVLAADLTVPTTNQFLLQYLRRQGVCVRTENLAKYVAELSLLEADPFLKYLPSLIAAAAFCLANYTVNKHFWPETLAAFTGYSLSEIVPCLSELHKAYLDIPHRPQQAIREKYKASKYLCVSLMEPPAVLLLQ
E10F: -0.0454
D12V: 0.314
D12P: -0.0592
C9D: -0.221
A4Q: -0.402
M8A: 0.0104
A4L: -0.243
M8I: 0.117
M2S: 0.46
L7A: 0.0705
A4T: 0.0964
D12C: 0.162
L11D: -0.256
K5V: -0.24
L7H: -0.915

Block 4 — technique: protein binding microarray; form: double-stranded DNA, one strand shown; matrix: in vitro; tested at: not given; relative to: not given; direction: higher = stronger binding; quantity: E-score
Target: Histone acetyltransferase KAT6A, winged helix 2, GST fusion (KAT6A, Homo sapiens, UniProt Q92794, residues 85-181)
Setting: 8-mer, flanks averaged, mean of 2 arrays, mostly near background
Target sequence (chain): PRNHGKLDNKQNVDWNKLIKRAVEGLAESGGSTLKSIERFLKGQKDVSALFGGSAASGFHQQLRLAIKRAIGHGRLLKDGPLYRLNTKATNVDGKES
TTAGAGAA: 0.0306
AGGCTCGC: 0.119
ACCTGTCG: 0.048
CTTCGGCC: 0.119
AAAGGAAG: -0.00463
ACCAACGG: 0.127
AACACCTA: -0.161
ATTAGGAA: 0.0684
ATGAATCC: -0.109
CCATAAAA: -0.0307
AAGTAACA: -0.157
CGGCACCG: 0.236
GAATCAGC: -0.0434
CGAGGCTA: -0.00552
ATCGCGTC: 0.0873
CCAGGTTA: -0.00162

Block 5 — technique: DHFR PCA, deep sequencing; matrix: yeast; together with: (+)-ABA 2500 µM; relative to: wild-type fitted maximum; direction: higher = stronger binding; quantity: relative binding score
Target: ABI1, truncated, D143A, DHFR fusion (Arabidopsis thaliana)
Setting: methotrexate growth selection, single substitutions
Starting sequence: PYL1, truncated, DHFR fusion (Arabidopsis thaliana); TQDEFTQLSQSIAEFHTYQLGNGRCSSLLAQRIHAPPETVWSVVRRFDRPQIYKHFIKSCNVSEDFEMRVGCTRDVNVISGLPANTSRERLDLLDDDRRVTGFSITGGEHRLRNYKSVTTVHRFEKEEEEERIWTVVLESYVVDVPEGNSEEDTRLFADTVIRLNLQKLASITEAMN
D48F: 63.9%
F124A: 104%
T6E: 108%
L166R: 3.04%
S26C: 99.8%
I133T: 103%
Y115L: 83.2%
L28A: 82.8%
A158E: -3.69%
I33A: 73.2%
L164D: 57.8%
N77D: 93.2%
I79H: 96.1%
S140L: 12%

Block 6 — technique: aptamer microarray, sandwich; form: DNA with 2'F-ANA; matrix: in vitro; tested at: 200 nM; together with: Cy3 exosite-II aptamer, 400 nM; direction: higher = stronger binding; quantity: mean fluorescence intensity; strand: GGTTGGTGTGGTTGG
Target: Prothrombin, mature alpha-thrombin (F2, Homo sapiens, UniProt P00734)
Setting: whole 15-mer aptamer, many near background
2'F-ANA at 2 5 6 7 8 9 12 14: 66.4 a.u.
2'F-ANA at 4 5 6 9 10 12 13 14 15: 45.9 a.u.
2'F-ANA at 3 5 8 11 12 13: 207 a.u.
2'F-ANA at 1 5 10 12 14 15: 43.4 a.u.
2'F-ANA at 6 8 10 12 15: 202 a.u.
2'F-ANA at 2 3 4 9 11 12 15: 686 a.u.
2'F-ANA at 1 2 4 6 8 9 10 12 13 14: 50.5 a.u.
2'F-ANA at 2 5 10 12 15: 128 a.u.
2'F-ANA at 4 5 7 9 10 12 15: 57.8 a.u.
2'F-ANA at 1 3 6 10 11 13: 71.6 a.u.
2'F-ANA at 1 3 5 6 9 11 14 15: 46.9 a.u.
2'F-ANA at 3 4 5 6 7 8 10 13 15: 64.3 a.u.
2'F-ANA at 1 2 3 4 6 8 12: 398 a.u.
2'F-ANA at 1 6 10 12 14: 91.3 a.u.

Block 7 — technique: protein-binding microarray; form: hairpin DNA; matrix: in vitro; tested at: not given; relative to: not given; direction: higher = stronger binding; quantity: median fluorescence
Target: Runt-related transcription factor 3, Runt domain (RUNX3, Homo sapiens, UniProt Q13761, residues 53-186)
UniProt Q13761, sequence (53-186, looked up): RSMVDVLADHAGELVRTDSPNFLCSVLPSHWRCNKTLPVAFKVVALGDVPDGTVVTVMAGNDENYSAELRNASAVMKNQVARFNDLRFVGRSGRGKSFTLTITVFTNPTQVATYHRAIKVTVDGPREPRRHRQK
Setting: whole hairpin DNA, median over replicate spots
GAGGCCTGTCCCGGTTGGCCTCCTGGCCAACCGGGACAGGCCTCACACTC: 5330 a.u.
GAGGCCTGTCGCGGTTGGCCTCCTGGCCAACCGCGACAGGCCTCACACTC (5mC at 20): 7470 a.u.
CTCAGTTCTCTGGGCTGGACTCCTGTCCAGCCCAGAGAACTGAGACACTC (5mC at 10): 3810 a.u.
GAGGCCTGCGGTGGTTGGCCTCCTGGCCAACCACCGCAGGCCTCACACTC (5mC at 9 35): 5070 a.u.
GAGGCCTGTCGCGGTTCGCCTCCTGGCGAACCGCGACAGGCCTCACACTC: 5740 a.u.
GAGGCCTGTTGCCGTTGGCCTCCTGGCCAACGGCAACAGGCCTCACACTC (5mC at 13): 4760 a.u.
GAGGCCTGTCGCGGTTGGCCTCCTGGCCAACCGCGACAGGCCTCACACTC (5mC at 10 12 32): 5030 a.u.
GAGGCCTGTGGTGGTTGGCCTCCTGGCCAACCACCACAGGCCTCACACTC: 5730 a.u.
GAGGCCTGTTGTCGTTGGCCTCCTGGCCAACGACAACAGGCCTCACACTC (5mC at 13 31): 4400 a.u.
GAGGCCTGTTGTGGTCGGCCTCCTGGCCGACCACAACAGGCCTCACACTC (5mC at 28): 6450 a.u.
GAGGCCTGCGGCGGTTGGCCTCCTGGCCAACCGCCGCAGGCCTCACACTC (5mC at 9): 6150 a.u.
GAGGCCCAACCGCGACAGCCTCCTGGCTGTCGCGGTTGGGCCTCACACTC: 6290 a.u.
GAGGCCTGTTGCGGTTGGCCTCCTGGCCAACCGCAACAGGCCTCACACTC (5mC at 37): 7730 a.u.
CTCAGTTCTGTGGCGTGGACTCCTGTCCACGCCACAGAACTGAGACACTC (5mC at 14): 4290 a.u.
GAGGCCTGTCGCGGTCGGCCTCCTGGCCGACCGCGACAGGCCTCACACTC (5mC at 16 28): 6270 a.u.
GAGGCCTGTTGTGATTGGCCTCCTGGCCAATCACAACAGGCCTCACACTC: 4290 a.u.
GAGGCCTGTCGCGGCGGGCCTCCTGGCCCGCCGCGACAGGCCTCACACTC (5mC at 15): 6100 a.u.
GAGGCCTCGCGCGGTTGGCCTCCTGGCCAACCGCGCGAGGCCTCACACTC (5mC at 36): 5480 a.u.
GAGGCCCACGCGCAACAGCCTCCTGGCTGTTGCGCGTGGGCCTCACACTC (5mC at 35): 5150 a.u.
CTCAGTTCTGTGCGCTGGACTCCTGTCCAGCGCACAGAACTGAGACACTC (5mC at 13): 4210 a.u.
GAGGCCCAACCGCAACAGCCTCCTGGCTGTTGCGGTTGGGCCTCACACTC (5mC at 11): 5440 a.u.

For quick reference, copied from above (block 2):
GACGGACTGTTTTTCCTGACGTGCTAG: 0.777 z-score
CTAGTTAAGGTACACCAGCAGTGCTAG: -0.0639 z-score
GACGATTCCAGTATCGAGACGTGCTAG: 0.739 z-score
TTAGATATCAGTAGCGATTAGTGCTAG: -0.44 z-score
GACGAACGGAGTATCGAGACGTGCTAG: -0.488 z-score
TTAGTTATCGGGACTGGATTAGTGCTA: 0.158 z-score
TTATATATCGGGTTTCGATTAGTGCTA: 3.13 z-score
GACGGTATCGACTTTCGGGCCGTGCTA: 2.04 z-score
TCATGTTTTTCATTATTACTGTGCTAG: 2.07 z-score
GACGGACTGGGGTTTTGGGACGTGCTA: -0.612 z-score
GGCAGCCTCTGCATTCCCTCAGTGCTA: -0.38 z-score
GGCGGTATCGACTATCGGGACGTGCTA: -0.586 z-score
GACGAATTCAGACTGGAGACGTGCTAG: -0.208 z-score
